Results from different studies.
Each line is one published result; not all experiments were run side by side.

Compound = N[C@@H]1c2ccccc2OC12CCN(c1cnc3c(N4CCCc5ncccc54)n[nH]c3n1)CC2; test system = advanced solid tumour patients; conditions = oral, 75 mg once daily; endpoint = patients with fatal TEAE; result = 0%
Compound = C[C@@H]1OC(=O)NN=C1c1ccc(-c2ccc(F)cc2)c(C(F)(F)F)c1; test system = patients, phase I trial; conditions = oral, 5 mg once daily, any grade TEAE; endpoint = patients with AST increased; result = 0%
Compound = CN1CCC(CNc2ccc3ncc(-c4cccc(OC(F)(F)F)c4)n3n2)CC1; tested on = human coronavirus OC43; test = virus-induced cell killing; test system = MRC-5; conditions = screen; endpoint = maximum inhibition; result = 8.92%
Compound = CN1CC[C@@H](c2c(O)cc(O)c3c(=O)cc(-c4ccc(C(F)(F)F)cc4Cl)oc23)[C@@H]1CO; test = measured: Dizziness; test system = B-cell malignancies; conditions = oral, 200 mg, intermittent dosing; endpoint = patients with adverse event; result = 100%
Compound = Nc1nc2cc(-c3ccc4ncc(C(=O)N5CCOCC5)n4c3)ccc2o1; test = measured: Hyperglycemia; test system = advanced solid tumour patients; conditions = dose not given, all grades, all doses; endpoint = patients with adverse event; result = 37%
Compound = COc1c(OCCCN2CCOCC2)ccc2c1N=C(NC(=O)c1cnc(N)nc1)N1CCN=C21; test = measured: Anorexia; test system = patients with advanced malignancies; conditions = intravenous, dose not given, any grade, all cohorts, with: gemcitabine; endpoint = patients with adverse event; result = 64%
Compound = O=C(O)c1ccc(-c2c[nH]c3ncc(-c4ccccc4)cc23)cc1C1CCCC1; tested on = human coronavirus OC43; test = virus-induced cell killing; test system = MRC-5; conditions = screen; endpoint = maximum inhibition; result = 9.84%
Compound = CCN(CCO)CCCC(C)Nc1ccnc2cc(Cl)ccc12 (stereo not shown); test = measured: Dizziness grade 1; test system = newly diagnosed glioblastoma patients; conditions = oral, 400 mg/dose, with radiotherapy and temozolomide; endpoint = patients with adverse event; result = 14%
Compound = C=CCNc1c(O)cc2c(O)c1C[C@@H](C)C[C@H](OC)[C@H](O)[C@@H](C)/C=C(\C)[C@H](OC(N)=O)[C@@H](OC)/C=C\C=C(/C)C(=O)N2; test system = unresectable or metastatic STS, GIST, other; conditions = intravenous, 90 mg/m^2; endpoint = patients with fatigue TEAE; result = 83%
Compound = CC(=O)c1c(C)c2cnc(Nc3ccc(C4CCN(CCS(C)(=O)=O)CC4)cn3)nc2n(C2CCCC2)c1=O; test system = HR+/HER2- advanced breast cancer patients; conditions = oral, dose not given, all grades, dose escalation, sample B patients; endpoint = patients with anaemia; result = 31.6%
Compound = Cc1cc(OCCOCCC(F)(F)P(=O)(O)O)ccc1CCc1cnc2c(N)nc3cc(CCC(=O)O)ccc3c2c1; test = measured: fatigue; test system = adults with advanced solid tumours; conditions = dose not given, by treatment group, all grades; endpoint = patients with non-serious AE; result = 9.5%
Compound = O=C1Nc2cc3[nH]nc(-c4ccncc4)c3cc2CN1Cc1ccccc1; test = measured: abdominal pain; test system = patients with advanced solid tumours; conditions = intravenous, dose not given, both schedules pooled; endpoint = patients with TEAE; result = 15%
Compound = CO[C@H]1C[C@@H]2CC[C@@H](C)[C@@](O)(O2)C(=O)C(=O)N2CCCC[C@H]2C(=O)O[C@H]([C@H](C)C[C@@H]2CC[C@@H](OC(=O)NCCOCCOCCOCCOCCOCCOCCOCCOCCC(=O)N3CCc4cc(Cn5nc(-c6ccc7oc(N)nc7c6)c6c(N)ncnc65)ccc4C3)[C@H](OC)C2)C[C@@H](O)[C@H](C)/C=C(\C)[C@@H](O)[C@@H](OC)C(=O)[C@H](C)C[C@H](C)/C=C/C=C/C=C/1C; test = measured: grade ≥3 treatment-related rash; test system = patients with advanced solid tumours; conditions = intravenous, dose not given, all patients, weekly; endpoint = patients with AE; result = 4%

Excerpt of the above:
Compound = C=CCNc1c(O)cc2c(O)c1C[C@@H](C)C[C@H](OC)[C@H](O)[C@@H](C)/C=C(\C)[C@H](OC(N)=O)[C@@H](OC)/C=C\C=C(/C)C(=O)N2; test system = unresectable or metastatic STS, GIST, other; conditions = intravenous, 90 mg/m^2; endpoint = patients with fatigue TEAE; result = 83%
